Published values gathered from unrelated publications.
Protocols differ between the studies behind these lines. ± marks the error that the study gave.
MRGPRX2: Mas-related G-protein coupled receptor member X2 (MRGPRX2, Homo sapiens, UniProt Q96LB1)
Chain of UniProt Q96LB1 (whole entry, looked up): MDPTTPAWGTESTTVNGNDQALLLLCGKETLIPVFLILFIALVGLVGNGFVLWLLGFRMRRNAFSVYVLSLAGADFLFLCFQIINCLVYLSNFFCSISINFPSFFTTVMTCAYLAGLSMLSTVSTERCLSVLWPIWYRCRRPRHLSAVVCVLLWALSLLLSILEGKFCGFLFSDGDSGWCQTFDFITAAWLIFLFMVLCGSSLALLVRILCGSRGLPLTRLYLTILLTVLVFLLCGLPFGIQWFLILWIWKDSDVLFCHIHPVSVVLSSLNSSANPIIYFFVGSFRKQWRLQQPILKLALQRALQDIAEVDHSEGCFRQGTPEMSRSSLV
CHRM3: Muscarinic acetylcholine receptor M3 (CHRM3, Homo sapiens, UniProt P20309)
Chain of UniProt P20309 (whole entry, looked up): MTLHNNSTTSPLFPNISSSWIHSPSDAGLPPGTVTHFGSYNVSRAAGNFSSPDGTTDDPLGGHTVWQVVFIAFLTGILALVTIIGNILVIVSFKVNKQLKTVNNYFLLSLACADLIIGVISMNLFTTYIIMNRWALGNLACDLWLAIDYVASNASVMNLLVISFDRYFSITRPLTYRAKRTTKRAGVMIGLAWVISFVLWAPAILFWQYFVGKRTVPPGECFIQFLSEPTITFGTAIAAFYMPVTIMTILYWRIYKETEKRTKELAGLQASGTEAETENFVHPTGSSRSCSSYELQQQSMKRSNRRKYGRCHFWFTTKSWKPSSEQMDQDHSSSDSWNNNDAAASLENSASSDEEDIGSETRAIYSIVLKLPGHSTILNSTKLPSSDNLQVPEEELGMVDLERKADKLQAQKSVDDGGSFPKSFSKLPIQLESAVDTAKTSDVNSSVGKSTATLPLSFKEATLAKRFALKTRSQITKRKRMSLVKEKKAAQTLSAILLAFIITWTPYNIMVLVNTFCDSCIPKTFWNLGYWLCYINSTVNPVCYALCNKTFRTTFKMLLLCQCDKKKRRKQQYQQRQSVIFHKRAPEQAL
Chrnd/Chrna1/Chrne: Chrnd/Chrna1/Chrne (Mus musculus, UniProt P02716+P04756+P20782)
Chain of UniProt P20782 (whole entry, looked up): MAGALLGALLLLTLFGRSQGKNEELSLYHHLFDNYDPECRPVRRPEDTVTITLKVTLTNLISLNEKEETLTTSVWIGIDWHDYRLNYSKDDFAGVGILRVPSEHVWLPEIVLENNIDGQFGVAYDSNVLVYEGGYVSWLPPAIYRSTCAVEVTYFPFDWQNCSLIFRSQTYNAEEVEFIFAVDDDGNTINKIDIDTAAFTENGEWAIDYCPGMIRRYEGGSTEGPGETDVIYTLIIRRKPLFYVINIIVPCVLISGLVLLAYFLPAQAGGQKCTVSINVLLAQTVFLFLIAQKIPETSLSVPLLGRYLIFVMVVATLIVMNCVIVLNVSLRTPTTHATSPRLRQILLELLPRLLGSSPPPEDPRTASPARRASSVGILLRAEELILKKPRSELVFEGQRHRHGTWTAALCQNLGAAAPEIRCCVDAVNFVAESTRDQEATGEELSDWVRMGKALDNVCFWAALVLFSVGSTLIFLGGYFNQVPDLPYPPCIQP
Chain of UniProt Q02108 (whole entry, unmodified, looked up): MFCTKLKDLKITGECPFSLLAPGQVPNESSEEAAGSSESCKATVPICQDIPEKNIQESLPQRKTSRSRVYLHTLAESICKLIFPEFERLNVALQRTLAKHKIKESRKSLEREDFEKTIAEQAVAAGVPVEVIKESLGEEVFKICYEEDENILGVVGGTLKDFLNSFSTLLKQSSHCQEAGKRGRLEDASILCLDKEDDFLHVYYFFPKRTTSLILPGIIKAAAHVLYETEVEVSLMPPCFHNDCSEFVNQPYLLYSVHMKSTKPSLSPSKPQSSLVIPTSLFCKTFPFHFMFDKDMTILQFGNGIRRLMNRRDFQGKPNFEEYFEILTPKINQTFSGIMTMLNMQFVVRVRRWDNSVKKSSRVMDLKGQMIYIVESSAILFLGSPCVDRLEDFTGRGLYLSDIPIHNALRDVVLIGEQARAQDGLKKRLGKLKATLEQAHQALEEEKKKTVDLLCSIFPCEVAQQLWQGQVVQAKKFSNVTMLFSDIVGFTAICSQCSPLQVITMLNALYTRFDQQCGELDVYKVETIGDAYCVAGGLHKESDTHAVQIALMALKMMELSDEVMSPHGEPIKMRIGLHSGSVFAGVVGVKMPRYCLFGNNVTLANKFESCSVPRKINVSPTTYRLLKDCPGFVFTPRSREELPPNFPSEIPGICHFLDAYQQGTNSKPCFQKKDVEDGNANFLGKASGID
Chain of UniProt Q02153 (whole entry, unmodified, looked up): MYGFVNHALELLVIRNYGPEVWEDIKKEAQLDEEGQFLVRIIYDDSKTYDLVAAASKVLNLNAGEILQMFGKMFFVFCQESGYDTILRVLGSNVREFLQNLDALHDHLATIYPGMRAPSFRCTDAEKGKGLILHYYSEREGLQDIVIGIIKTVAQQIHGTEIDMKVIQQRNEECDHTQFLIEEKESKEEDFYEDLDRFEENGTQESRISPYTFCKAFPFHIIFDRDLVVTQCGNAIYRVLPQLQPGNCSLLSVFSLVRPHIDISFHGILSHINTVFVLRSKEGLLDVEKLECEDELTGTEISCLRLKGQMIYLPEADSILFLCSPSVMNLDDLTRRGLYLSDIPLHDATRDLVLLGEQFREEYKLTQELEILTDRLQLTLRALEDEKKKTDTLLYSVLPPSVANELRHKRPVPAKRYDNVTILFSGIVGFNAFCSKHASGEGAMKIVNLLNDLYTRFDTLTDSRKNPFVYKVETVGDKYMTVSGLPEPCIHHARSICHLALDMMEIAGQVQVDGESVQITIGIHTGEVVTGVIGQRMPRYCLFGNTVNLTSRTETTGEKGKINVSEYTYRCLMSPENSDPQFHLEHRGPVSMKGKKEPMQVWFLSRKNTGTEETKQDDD
Chain of UniProt P02716 (whole entry, looked up): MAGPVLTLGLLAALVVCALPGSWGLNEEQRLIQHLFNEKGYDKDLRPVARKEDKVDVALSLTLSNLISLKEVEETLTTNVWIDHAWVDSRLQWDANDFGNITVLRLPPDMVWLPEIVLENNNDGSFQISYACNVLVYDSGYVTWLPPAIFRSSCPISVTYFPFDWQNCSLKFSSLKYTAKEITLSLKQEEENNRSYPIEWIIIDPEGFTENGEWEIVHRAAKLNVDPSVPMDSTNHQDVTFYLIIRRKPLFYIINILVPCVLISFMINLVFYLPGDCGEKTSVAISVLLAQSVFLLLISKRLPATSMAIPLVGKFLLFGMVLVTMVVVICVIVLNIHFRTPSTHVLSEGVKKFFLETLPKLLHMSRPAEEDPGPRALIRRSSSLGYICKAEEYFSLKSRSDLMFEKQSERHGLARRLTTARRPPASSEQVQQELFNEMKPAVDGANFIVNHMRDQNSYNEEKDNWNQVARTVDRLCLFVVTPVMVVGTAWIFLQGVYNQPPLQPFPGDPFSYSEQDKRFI
Chain of UniProt P04756 (whole entry, looked up): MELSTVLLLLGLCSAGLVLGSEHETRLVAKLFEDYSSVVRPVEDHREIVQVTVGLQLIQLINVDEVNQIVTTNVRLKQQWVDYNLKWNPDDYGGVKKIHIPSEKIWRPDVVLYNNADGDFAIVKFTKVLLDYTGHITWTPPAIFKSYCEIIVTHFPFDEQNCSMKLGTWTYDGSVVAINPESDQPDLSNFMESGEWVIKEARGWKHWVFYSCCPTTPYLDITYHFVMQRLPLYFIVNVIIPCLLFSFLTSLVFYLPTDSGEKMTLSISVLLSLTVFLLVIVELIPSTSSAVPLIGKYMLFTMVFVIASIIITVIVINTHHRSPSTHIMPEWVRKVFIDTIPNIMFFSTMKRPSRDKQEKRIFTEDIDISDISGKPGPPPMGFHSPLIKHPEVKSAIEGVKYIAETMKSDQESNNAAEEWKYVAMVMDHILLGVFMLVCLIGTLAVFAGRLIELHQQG
Chain of UniProt Q704Y3 (whole entry, unmodified, looked up): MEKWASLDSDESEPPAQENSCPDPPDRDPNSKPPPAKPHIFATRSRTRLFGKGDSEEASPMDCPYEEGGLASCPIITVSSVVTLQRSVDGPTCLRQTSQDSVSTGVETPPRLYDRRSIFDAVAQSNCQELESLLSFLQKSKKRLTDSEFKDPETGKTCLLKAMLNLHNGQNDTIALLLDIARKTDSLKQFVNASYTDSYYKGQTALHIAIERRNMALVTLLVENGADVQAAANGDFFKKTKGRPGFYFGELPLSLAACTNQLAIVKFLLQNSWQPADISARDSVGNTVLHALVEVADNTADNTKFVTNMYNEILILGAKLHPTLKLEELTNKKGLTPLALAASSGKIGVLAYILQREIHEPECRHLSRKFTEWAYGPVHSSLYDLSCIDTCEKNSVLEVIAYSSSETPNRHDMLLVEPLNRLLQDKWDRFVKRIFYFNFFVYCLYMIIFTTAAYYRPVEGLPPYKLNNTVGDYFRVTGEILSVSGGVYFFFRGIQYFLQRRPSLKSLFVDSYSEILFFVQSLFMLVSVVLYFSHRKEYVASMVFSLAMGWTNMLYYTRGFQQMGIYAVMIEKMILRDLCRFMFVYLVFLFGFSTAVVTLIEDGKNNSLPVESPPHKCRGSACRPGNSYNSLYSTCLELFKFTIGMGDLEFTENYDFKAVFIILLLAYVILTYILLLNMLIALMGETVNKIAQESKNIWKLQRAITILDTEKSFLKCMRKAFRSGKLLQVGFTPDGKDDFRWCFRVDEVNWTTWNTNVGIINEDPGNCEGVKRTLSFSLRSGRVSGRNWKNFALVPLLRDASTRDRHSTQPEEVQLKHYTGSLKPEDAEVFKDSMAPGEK
Chain of UniProt Q14994 (whole entry, looked up): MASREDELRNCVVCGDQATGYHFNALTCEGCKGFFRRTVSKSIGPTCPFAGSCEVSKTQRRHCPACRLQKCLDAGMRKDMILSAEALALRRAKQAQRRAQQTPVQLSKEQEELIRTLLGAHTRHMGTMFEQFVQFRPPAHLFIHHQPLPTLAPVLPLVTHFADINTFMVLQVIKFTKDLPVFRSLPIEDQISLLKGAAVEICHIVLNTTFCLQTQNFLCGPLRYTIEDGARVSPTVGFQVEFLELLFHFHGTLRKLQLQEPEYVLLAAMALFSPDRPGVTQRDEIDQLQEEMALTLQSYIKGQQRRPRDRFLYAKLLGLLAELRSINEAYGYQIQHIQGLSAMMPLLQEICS

Structure (SMILES) | target or system | assay | system | conditions | measurement | value
CC[C@H](C)[C@H](NC(=O)[C@H](CCC(=O)O)NC(=O)[C@H](CCC(=O)O)NC(=O)[C@H](C)NC(C)=O)C(=O)N[C@@H](CCC(=O)O)C(=O)O | MRGPRX2 | β-arrestin-2 recruitment, agonist | – | – | EC50 | > 20 µM
c1cc(N2CCNCC2)c2cc[nH]c2c1 | CHRM3 | ERK1/2 phosphorylation, agonist | CHO cells | – | EC50 | > 20 µM
O=C1c2ccccc2C(=O)C1c1ccccc1 | Nuclear receptor subfamily 1 group I member 3 (Homo sapiens, UniProt Q14994) | cell-based | – | – | EC50 | 525 ± 148 µM
O=C(O)c1ccc(CN2C(=O)CN(C(=O)c3ccco3)c3ccc(-c4ccccc4)cc32)cc1 | Soluble guanylate cyclase alpha1/beta1 complex (Homo sapiens, UniProt Q02108+Q02153) | enzyme activity, activator, purified recombinant enzyme | – | – | EC50 | 0.01 µM
c1cncc([C@@H]2CCCCN2)c1 | Chrnd/Chrna1/Chrne | channel open probability, agonist | mouse | wild type | EC50 | 630 µM
Clc1cc2c(cc1Cl)Oc1cc(Cl)c(Cl)cc1O2 | Uncharacterized protein (Takifugu rubripes, UniProt Q4JHL6) | reporter gene, agonist, dual-luciferase | COS-7 | 24 h | EC50 | 0.0003 ± 0.0001 µM
C[N+](C)(C)C | Chrnd/Chrna1/Chrne | channel open probability, agonist | mouse | wild type | EC50 | 1100 µM
CC[C@H](C)[C@H](NC(=O)[C@H](Cc1ccccc1)NC(=O)[C@H](CC(=O)O)NC(=O)[C@H](CCCNC(=N)N)NC(=O)[C@@H](NC(=O)[C@H](C)NC(=O)[C@H](CC(C)C)NC(=O)[C@H](CC(N)=O)NC(=O)[C@H](CC(=O)O)NC(=O)[C@H](CC(C)C)NC(=O)[C@@H](NC(=O)[C@@H](NC(=O)[C@H](CO)NC(=O)[C@H](CCSC)NC(=O)[C@H](CCC(=O)O)NC(=O)[C@H](CC(=O)O)NC(=O)[C@H](CO)NC(=O)[C@H](Cc1ccccc1)NC(=O)[C@H](CO)NC(=O)CNC(=O)[C@H](CC(=O)O)NC(=O)[C@H](C)NC(=O)[C@@H](N)Cc1c[nH]cn1)[C@@H](C)O)[C@@H](C)CC)[C@@H](C)O)C(=O)N[C@@H](CC(N)=O)C(=O)N[C@@H](Cc1c[nH]c2ccccc12)C(=O)N[C@@H](CC(C)C)C(=O)N[C@H](C(=O)N[C@@H](CCC(N)=O)C(=O)N[C@H](C(=O)N[C@@H](CCCCN)C(=O)N[C@H](C(=O)N[C@H](C(=O)N[C@@H](CC(=O)O)C(=O)O)[C@@H](C)O)[C@@H](C)CC)[C@@H](C)O)[C@@H](C)CC | GLP2R (Homo sapiens, UniProt O95838) | reporter gene, agonist, CRE-luciferase | HEK-293T | 12 h | EC50 | 0.00656 µM
COc1cc(C(=O)N2CC[C@@H](O)[C@@H](N)C2)cc2nc(-c3cc4ccccc4n3CC3CC3)n(C)c12 | CHRNA1 (Homo sapiens, UniProt P02708) | agonist, intracellular Ca2+ fluorescence | – | – | EC50 | > 50.1 µM
CNC(C)Cc1ccc2n[se]nc2c1 (centres unmarked) | SLC6A3 (Homo sapiens, UniProt Q01959) | transporter current, whole-cell patch clamp | HEK293 | holding -60 mV | EC50 | 5.97 µM
CC(C)C[C@H](NC(=O)[C@H](Cc1ccccc1)NC(=O)[C@H](Cc1ccc(O)cc1)NC(=O)CNC(=O)[C@H](CCCCN)NC(=O)[C@H](CO)NC(=O)[C@H](CCC(N)=O)NC(=O)CNC(=O)[C@@H](NC(=O)[C@H](CO)NC(=O)[C@@H]1CCCN1C(=O)[C@H](CO)NC(=O)[C@H](CCC(N)=O)NC(=O)[C@H](Cc1ccc(O)cc1)NC(=O)[C@H](CCC(=O)O)NC(=O)[C@H](C)NC(=O)[C@H](CCCCN)NC(=O)[C@@H](N)Cc1ccccc1)C(C)C)C(=O)N[C@@H](Cc1ccccc1)C(=O)N[C@@H](CCCNC(=N)N)C(=O)N1CCC[C@H]1C(=O)N[C@@H](CCCNC(=N)N)C(=O)N[C@@H](CC(N)=O)C(N)=O | Neuromedin-U receptor 1 (Mus musculus, UniProt O55040) | β-arrestin recruitment, agonist | – | – | EC50 | 0.0005 µM
COc1cc2c(Oc3ccc4[nH]c(C)cc4c3F)ccnc2cc1OCC1(N)CC1 | – | – | paediatric refractory sarcoma patients | 10 mg | ALT elevation incidence | 0%
NC(=O)[C@@H]1CCCN1C(=O)[C@H](CCC(=O)O)NC(=O)[C@@H]1CCC(=O)N1 | MRGPRX2 | β-arrestin-2 recruitment, agonist | – | – | EC50 | > 20 µM
O=C(O)c1ccc(CN2C(=O)CN(C(=O)c3ccco3)c3cc(-c4ccccc4)c(Oc4ccc(C(=O)O)cc4)cc32)cc1 | Soluble guanylate cyclase alpha1/beta1 complex (Homo sapiens, UniProt Q02108+Q02153, H105A) | activator | – | α1S/β1 variant | EC50 | 1.81 µM
Cc1cc(N2CCNCC2)nc2ccccc12 | CHRM3 | ERK1/2 phosphorylation, agonist | CHO cells | – | EC50 | > 20 µM
C[C@@H](O)[C@@H]1NC(=O)[C@H](CCCCN)NC(=O)[C@H](Cc2c[nH]c3ccccc23)NC(=O)[C@H](Cc2ccccc2)NC(=O)[C@H](Cc2ccccc2)NC(=O)[C@H](CC(N)=O)NC(=O)[C@H](CCCCN)NC(=O)[C@@H](NC(=O)[C@@H]2CCCN2)CSSC[C@@H](C(=O)N[C@@H](CCCCN)C(=O)O)NC(=O)[C@H](CO)NC(=O)[C@H](CO)NC(=O)[C@H](Cc2ccccc2)NC1=O | Mas-related G-protein receptor X2, truncated (Canis lupus familiaris, UniProt A0A4Y5P885) | calcium mobilization, agonist, FLIPR | U2OS expressing truncated receptor | – | EC50 | 0.0631 µM
CCCCC/C=C\C/C=C\C/C=C\C/C=C\CCCC(=O)NCCO | Trpv1 (Mus musculus, UniProt Q704Y3, S513T) | ion current, agonist, whole-cell patch clamp | – | 24 °C, S513T, +80 mV | EC50 | 5.24 ± 0.89 µM

Some of these lines once more:
Structure (SMILES) | target or system | assay | system | conditions | measurement | value
CC(C)C[C@H](NC(=O)[C@H](Cc1ccccc1)NC(=O)[C@H](Cc1ccc(O)cc1)NC(=O)CNC(=O)[C@H](CCCCN)NC(=O)[C@H](CO)NC(=O)[C@H](CCC(N)=O)NC(=O)CNC(=O)[C@@H](NC(=O)[C@H](CO)NC(=O)[C@@H]1CCCN1C(=O)[C@H](CO)NC(=O)[C@H](CCC(N)=O)NC(=O)[C@H](Cc1ccc(O)cc1)NC(=O)[C@H](CCC(=O)O)NC(=O)[C@H](C)NC(=O)[C@H](CCCCN)NC(=O)[C@@H](N)Cc1ccccc1)C(C)C)C(=O)N[C@@H](Cc1ccccc1)C(=O)N[C@@H](CCCNC(=N)N)C(=O)N1CCC[C@H]1C(=O)N[C@@H](CCCNC(=N)N)C(=O)N[C@@H](CC(N)=O)C(N)=O | Neuromedin-U receptor 1 (Mus musculus, UniProt O55040) | β-arrestin recruitment, agonist | – | – | EC50 | 0.0005 µM
CCCCC/C=C\C/C=C\C/C=C\C/C=C\CCCC(=O)NCCO | Trpv1 (Mus musculus, UniProt Q704Y3, S513T) | ion current, agonist, whole-cell patch clamp | – | 24 °C, S513T, +80 mV | EC50 | 5.24 ± 0.89 µM
